Measured values from different studies.
Parts stem from different laboratories: compare values within a part only. “And” joins repeats or separate records; there may be more than shown.
UniProt P08912, sequence (whole entry, looked up): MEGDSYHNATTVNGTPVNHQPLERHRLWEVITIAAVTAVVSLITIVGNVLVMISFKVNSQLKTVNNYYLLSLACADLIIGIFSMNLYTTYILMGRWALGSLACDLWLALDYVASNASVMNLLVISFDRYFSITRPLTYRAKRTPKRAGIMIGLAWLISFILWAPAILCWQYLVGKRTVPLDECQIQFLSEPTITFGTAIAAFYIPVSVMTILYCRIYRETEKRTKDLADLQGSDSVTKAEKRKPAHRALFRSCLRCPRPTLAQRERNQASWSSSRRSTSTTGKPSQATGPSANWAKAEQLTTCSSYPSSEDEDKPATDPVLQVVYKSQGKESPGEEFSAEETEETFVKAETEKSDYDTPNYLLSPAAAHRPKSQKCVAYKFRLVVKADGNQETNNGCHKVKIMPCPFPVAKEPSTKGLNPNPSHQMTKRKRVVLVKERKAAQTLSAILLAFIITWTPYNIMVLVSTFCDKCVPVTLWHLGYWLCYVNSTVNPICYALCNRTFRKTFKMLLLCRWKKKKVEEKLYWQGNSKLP
UniProt P9WI81, sequence (whole entry, looked up): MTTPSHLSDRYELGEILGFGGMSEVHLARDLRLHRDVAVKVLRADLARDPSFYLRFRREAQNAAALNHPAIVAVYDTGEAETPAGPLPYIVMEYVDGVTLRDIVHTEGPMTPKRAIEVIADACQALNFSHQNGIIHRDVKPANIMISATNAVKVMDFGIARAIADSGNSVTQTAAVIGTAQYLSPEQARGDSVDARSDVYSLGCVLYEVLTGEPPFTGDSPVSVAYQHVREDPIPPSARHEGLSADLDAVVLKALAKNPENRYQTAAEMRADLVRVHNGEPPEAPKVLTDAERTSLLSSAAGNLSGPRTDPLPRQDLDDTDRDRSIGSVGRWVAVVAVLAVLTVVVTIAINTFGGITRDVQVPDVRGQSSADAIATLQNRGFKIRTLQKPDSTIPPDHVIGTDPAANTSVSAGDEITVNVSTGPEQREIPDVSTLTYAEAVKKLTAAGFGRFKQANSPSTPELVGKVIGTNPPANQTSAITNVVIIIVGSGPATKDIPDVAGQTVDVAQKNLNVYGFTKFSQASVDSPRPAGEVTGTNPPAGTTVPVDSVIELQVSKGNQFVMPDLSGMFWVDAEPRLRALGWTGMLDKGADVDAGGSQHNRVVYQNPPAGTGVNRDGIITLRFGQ

Set 1
Target: Diamine acetyltransferase 1 (Homo sapiens, UniProt P21673)
Action: inhibitor
Tested at: 10 µM
Relative to: control
Target sequence (P21673 1-171): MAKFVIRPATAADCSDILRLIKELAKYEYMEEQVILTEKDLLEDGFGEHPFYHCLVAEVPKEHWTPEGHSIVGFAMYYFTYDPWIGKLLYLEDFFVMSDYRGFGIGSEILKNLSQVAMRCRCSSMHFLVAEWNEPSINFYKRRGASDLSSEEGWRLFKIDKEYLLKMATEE
For `CC[C@]12C=CCN3CC[C@]4(C(=C(C(=O)OC)C1)Nc1ccccc14)[C@@H]32`, the remaining activity was 101%.
With `CC(C)(C)[C@]1(O)C[C@@H]2OC(=O)C[C@@]23C(=O)O[C@@H]2OC(=O)[C@H](O)[C@]213` the remaining activity was 96.5%.
The remaining activity of `CC(C)=CCC[C@H](C(=O)O)[C@@H]1CC[C@]2(C)C3=C(CC[C@@]12C)[C@@]1(C)CCC(=O)C(C)(C)[C@@H]1CC3` is reported as 87.8%.
`C[C@@H]1CC[C@@]2(OC1)O[C@H]1C[C@H]3[C@@H]4CC=C5C[C@@H](O[C@@H]6O[C@H](CO)[C@@H](O[C@@H]7O[C@@H](C)[C@H](O)[C@@H](O)[C@H]7O)[C@H](O)[C@H]6O[C@@H]6O[C@@H](C)[C@H](O)[C@@H](O)[C@H]6O)CC[C@]5(C)[C@H]4CC[C@]3(C)[C@H]1[C@@H]2C` gave a remaining activity of 107%.

Set 2
Cell line: HEK-293T
Organism: VSV pseudotyped with VSV-G
Tested at: 10 µM
Time: 16 h
With `Cc1ccccc1C(OCCN(C)C)c1ccccc1` (stereo not shown) the pseudovirus infection was 111%.
With `CN(C)C(=N)N=C(N)N` the pseudovirus infection was 97.9%.
With `COc1cc(Cc2cnc(N)nc2N)cc(OC)c1OC` the pseudovirus infection was 100%.
`Cc1cccc(C)c1OCC(C)N` (stereo not shown) has a pseudovirus infection of 86%.
`C[C@@H]1C[C@H]2[C@@H]3C[C@H](F)C4=CC(=O)C=C[C@]4(C)[C@@]3(F)[C@@H](O)C[C@]2(C)[C@@]1(O)C(=O)CO` has a pseudovirus infection of 116%.
The pseudovirus infection of `CN1CCN(C2=Nc3cc(Cl)ccc3Nc3ccccc32)CC1` is reported as 105%.
The pseudovirus infection of `CC/C(=C(/CC)c1ccc(O)cc1)c1ccc(O)cc1` is reported as 109%.
`O=C(O)COCCN1CCN(C(c2ccccc2)c2ccc(Cl)cc2)CC1` (stereo not shown) gave a pseudovirus infection of 111%.
With `O=C(CCCN1CCC(O)(c2ccc(Cl)cc2)CC1)c1ccc(F)cc1` the pseudovirus infection was 117%.
For `CC(C)c1c(C(=O)Nc2ccccc2)c(-c2ccccc2)c(-c2ccc(F)cc2)n1CC[C@@H](O)C[C@@H](O)CC(=O)O`, the pseudovirus infection was 162%.
With `Nc1nc2ccc(OC(F)(F)F)cc2s1` the pseudovirus infection was 91.2%.
For `Clc1ccc2nsnc2c1NC1=NCCN1`, the pseudovirus infection was 71.7%.
With `NC(N)=Nc1nc(CSCCC(N)=NS(N)(=O)=O)cs1` the pseudovirus infection was 98.6%.
The pseudovirus infection of `CN1CCCCC1CCN1c2ccccc2Sc2ccc([S+](C)[O-])cc21` (stereo not shown) is reported as 125%.
`C[C@H]1O[C@@H](O[C@H]2[C@@H](O)C[C@H](O[C@H]3[C@@H](O)C[C@H](O[C@H]4CC[C@@]5(C)[C@H](CC[C@@H]6[C@@H]5C[C@@H](O)[C@]5(C)[C@@H](C7=CC(=O)OC7)CC[C@]65O)C4)O[C@@H]3C)O[C@@H]2C)C[C@H](O)[C@@H]1O` gave a pseudovirus infection of -0.22%.
`OC(Cn1cncn1)(Cn1cncn1)c1ccc(F)cc1F` gave a pseudovirus infection of 100%.
With `CN(C)CCOC(c1ccccc1)c1ccccc1` the pseudovirus infection was 99.2%.

Set 3
Organism: Sarcocystis neurona
Effect on: parasite growth
Tested at: 10 µM
Time: 96 h
Setting: second screen
Relative to: untreated
For `FC(F)(F)c1cccc(N2CCNCC2)c1`, “log2 fold change” read 0.54.
`C[C@]12CC[C@H](O)CC1=CC[C@@H]1[C@@H]2CC[C@@]2(C)[C@H]1CC[C@]2(C)O` — result for “log2 fold change”: 0.16.
Under “log2 fold change”, `OCCN1CCN(CCCN2c3ccccc3Sc3ccc(Cl)cc32)CC1` is recorded as -2.69.
`c1ccc2c(c1)Nc1ccccc1S2` — result for “log2 fold change”: 0.7.
Under “log2 fold change”, `C[C@H]1[C@H](OC(=O)CCC(=O)O)O[C@@H]2O[C@@]3(C)CC[C@H]4[C@H](C)CC[C@@H]1[C@@]24OO3` is recorded as -2.07.
Under “log2 fold change”, `CN1CCN(C(=O)O[C@H]2c3nccnc3C(=O)N2c2ccc(Cl)cn2)CC1` is recorded as 0.26.
`CN1C(=O)COc2c(C(=O)NC3CN4CCC3CC4)cc(Cl)cc21` (stereo not shown): “log2 fold change” 0.18.

Set 4
Cell line: mouse MPNST tumor cells
Technique: high-content immunofluorescence imaging
Refers to: nuclear SOX9
Tested at: 10 µM
Time: 12 h
Setting: mean of 2 replicates
Relative to: DMSO control
Reading: higher = more nuclear SOX9
For `CC12NC(Cc3ccccc31)c1ccccc12` (single isomer, unassigned; (+)), “nuclear SOX9 intensity” read 95.3 % of DMSO.
Under “nuclear SOX9 intensity”, `CC(=O)O[C@H]1C[C@@H]2CC[C@@H]3[C@H](CC[C@@]4(C)[C@H]3C[C@H]([N+]3(C)CCCCC3)[C@@H]4OC(C)=O)[C@@]2(C)C[C@@H]1[N+]1(C)CCCCC1` is recorded as 98.3 % of DMSO.
For `NC(=O)C[S@@+]([O-])C(c1ccccc1)c1ccccc1`, “nuclear SOX9 intensity” read 98.4 % of DMSO.
For `Oc1ccc2c3c1O[C@H]1c4[nH]c5c(c4C[C@@]4(O)[C@@H](C2)N(CC2CC2)CC[C@]314)C[C@@]1(O)[C@H]2Cc3ccc(O)c4c3[C@@]1(CCN2CC1CC1)[C@H]5O4`, “nuclear SOX9 intensity” read 93.1 % of DMSO.

Further values, each from its own experiment
HTR2C: 5-hydroxytryptamine receptor 2C (HTR2C, Homo sapiens, UniProt P28335)
UniProt P28335, sequence (whole entry, looked up): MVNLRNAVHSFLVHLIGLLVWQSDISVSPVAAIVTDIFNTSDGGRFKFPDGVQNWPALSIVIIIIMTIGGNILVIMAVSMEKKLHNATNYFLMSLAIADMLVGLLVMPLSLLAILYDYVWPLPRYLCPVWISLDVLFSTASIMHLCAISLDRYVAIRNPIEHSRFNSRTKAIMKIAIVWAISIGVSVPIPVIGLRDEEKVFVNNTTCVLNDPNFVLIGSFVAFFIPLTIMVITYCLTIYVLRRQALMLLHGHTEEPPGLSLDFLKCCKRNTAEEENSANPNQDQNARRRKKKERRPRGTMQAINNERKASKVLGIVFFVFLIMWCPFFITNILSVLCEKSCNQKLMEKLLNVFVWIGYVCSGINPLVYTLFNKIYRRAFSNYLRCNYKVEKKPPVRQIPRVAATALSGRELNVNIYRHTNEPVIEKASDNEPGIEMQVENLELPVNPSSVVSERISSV
The remaining binding of `CSc1cccnc1N1CCN(Cc2nc3ccccc3[nH]2)CC1` is reported as 87% (pknB (Mycobacterium tuberculosis, UniProt P9WI81); cell-free assay, competition with immobilised ligand; 1 µM).
Under “G2-M phase cells”, `CN[C@@H]1C[C@H]2O[C@@](C)([C@@H]1OC)n1c3ccccc3c3c4c(c5c6ccccc6n2c5c31)C(=O)NC4` is recorded as 44.1% and 32% (human CD34+ HSPC; EdU flow cytometry; 100 nM, 24 h).
`Cc1c(N2CCNCC2)nc2ccc(Br)cc2c1C(=O)NC[C@H](CCC(=O)O)c1ccccc1Cl` has an inhibition of -0.13% (CHRM5 (Homo sapiens, UniProt P08912); ligand displacement; 10 µM).
`CC1=C(C#N)[C@@H](c2ccc3[nH]nc(C)c3c2)C(C#N)=C(c2ccc(Cl)cc2)N1` gave a Ki of > 10 µM (HTR2C; binding, radioligand binding).
`CC(C)(O)c1cncc(-c2nc3ccc(F)cc3n2C2CC2)c1` has a Ki of > 10 µM (HTR2C; binding, radioligand binding).

For quick reference, copied from above (set 2):
For `Clc1ccc2nsnc2c1NC1=NCCN1`, the pseudovirus infection was 71.7%.
With `NC(N)=Nc1nc(CSCCC(N)=NS(N)(=O)=O)cs1` the pseudovirus infection was 98.6%.
